Measurements collected from several papers.
A part holds a random share of what one study measured. Substitutions count along the parent as printed.

Set 1
Target: ABI1, truncated, D143A, DHFR fusion (Arabidopsis thaliana)
Technique: DHFR PCA, deep sequencing
Medium: yeast
Notes: methotrexate growth selection, single substitutions
Together with: (+)-ABA 200 µM
Reference: wild-type fitted maximum
Reading: higher = stronger binding
Quantity: relative binding score
Starting sequence: PYL1, truncated, DHFR fusion (Arabidopsis thaliana); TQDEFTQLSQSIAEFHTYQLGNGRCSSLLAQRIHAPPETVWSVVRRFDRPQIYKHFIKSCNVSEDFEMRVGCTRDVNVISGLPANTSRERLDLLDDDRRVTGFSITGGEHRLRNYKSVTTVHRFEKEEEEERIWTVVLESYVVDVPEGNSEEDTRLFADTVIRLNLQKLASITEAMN; partner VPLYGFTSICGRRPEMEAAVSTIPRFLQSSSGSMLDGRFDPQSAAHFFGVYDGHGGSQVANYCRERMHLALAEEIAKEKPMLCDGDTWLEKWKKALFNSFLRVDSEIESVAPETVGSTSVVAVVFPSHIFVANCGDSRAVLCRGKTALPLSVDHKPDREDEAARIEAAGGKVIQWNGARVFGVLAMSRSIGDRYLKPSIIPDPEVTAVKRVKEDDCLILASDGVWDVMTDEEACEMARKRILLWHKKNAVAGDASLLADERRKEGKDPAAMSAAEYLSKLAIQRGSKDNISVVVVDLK
R32L: 90%
V100L: 95.8%
S26Q: 92.3%
E139S: 84%
V142H: 83.7%
F66Q: 101%
E67F: 92.3%
L93N: 65.6%
V70C: 90%
I12Q: 63.4%
V76E: 4.6%
L166P: 25.9%
F56D: -6.63%
V136E: 50.8%
R90H: 83.8%
S87G: 11.4%

Set 2
Target: RING finger protein unkempt homolog, zinc fingers 1-6, GST-SBP tag (UNK, Homo sapiens, UniProt Q9C0B0, residues 30-357)
Chain of UniProt Q9C0B0 (30-357, looked up): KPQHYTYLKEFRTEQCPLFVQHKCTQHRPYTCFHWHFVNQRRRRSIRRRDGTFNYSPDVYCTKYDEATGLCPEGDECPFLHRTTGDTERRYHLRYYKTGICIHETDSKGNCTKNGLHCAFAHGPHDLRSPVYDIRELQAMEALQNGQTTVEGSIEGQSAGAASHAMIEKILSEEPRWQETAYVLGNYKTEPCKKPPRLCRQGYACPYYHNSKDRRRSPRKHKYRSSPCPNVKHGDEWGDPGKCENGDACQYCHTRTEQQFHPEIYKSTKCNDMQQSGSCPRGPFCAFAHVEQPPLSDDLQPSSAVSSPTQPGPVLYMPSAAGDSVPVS
Technique: RNA Bind-n-Seq
Molecule type: RNA
Medium: in vitro
Concentration: not given
Notes: RNA with constant flanks, human and mouse sites, ends assumed
Reference: input RNA pool
Reading: higher = stronger binding
Quantity: bound/input enrichment
All sequences stand within: GGGAGUUCUACAGUCCGACGAUC … CAACAGAGGAUUGAGCAUCA
AUAUACUAUUUAUUAUAGCAUUUUGAUACCUCAUUCCGUUUACACAUCUCAAAAGCCGCUUAGUAAUUCUCUUAUUAUUUAAAGAACCACUACACUAGAGAAUGGAAUCUACUGUGGCAA: 0.795 ratio
UAGUUGCCCCUCCUCCCACUCCCCAGUCCACGGUCACUGCAAAAUGAACCUUUCCACUCCCCUUGCACGGGGUCCUCGUCUACCUCCUCCCCUCCCACCAGUAAUGCAGUCAUUAAUCCU: 4.4 ratio
UCUUUCAAGAAUACAUAUCCUAAAGAUGAAGCACAUGUCUCAGAUGAAUUCUCCAAAAGUAGGUCCAGUGUAUCUAAGGUGCCCUUAUUGCUUCCAAAUGUUUCUGCUUUGGAAUCUCAA: 0.112 ratio
UCUGCUGCGUGGACAAGGACACUCUCCGAUGCCACUUCCUCAGGCCCUUUUCCAAGGAAGACUAGAUGGAGUUGGCUUUUUAUGCAAAGGUCGUUGGAUUUCAGGGUGAGCACUGAGAGC: 0.156 ratio
CUUUCAGUAAGAACGACCCCCUAAAAGAAAACAGGAGGAGAUGCAGCGCUUUAGGCCGCCUUAGCCAGCAGCUUGUGUCCUACUCUGGAAGUUGUAACCUACAGUUUUUCUCACCUGUAA: 0.212 ratio
CAGAAGAACUUCUUUACAGAUCUAAUUCAAGACUGGUCUAGUGAUAAUGCUCCAGACAUUUUCUCAUUUGUUCCAUACACAUGGAAUUUUAAAAUCAUGUUUCAUCAGUUUGAGAUGAUU: 0.359 ratio
AUAGUUUCUUUACAUUGCUGUGCCCUUUAUACCUGUGCCCAGCUGGAGAAUAAUUUGUAUUGGUGGGGUGUUGUUCCUUUCAGUCAAAGGAAGAAAAUGUUAGAGAAAGCUAGAGCAAAA: 1.82 ratio
UGUCAACUGAGAGGCACAUACAAACUUAAUUUUGUUCCUCUUCAGUCUCUCUGUUUUGGAUUCUUCCUGGCAAUGUGUGCAGCAUGGGCUGAGCCUGGUGAUUGCCCUAGUGGGGAAGGC: 0.155 ratio
UCGGAGCUAUGCGGUGGUGCUAGAAUUUGUUAUAUUUUCCAUGAGACUUUUGGGCGAACCUUAGAAUCUGUUGAUCCACUUGGUGGCCUUAACACUAUUGACAUUUUGACUGCCAUUAGA: 3.36 ratio
GUGUGCAAAAGCAAGAAGUCCUGGCAAGCGAGACACACUGGUAUUAAGAUUGUACAACAGAUAGCUAUUCUUAUGGGCUGUGCCAUCUUGCCACAUCUUAGAAGUUUAGUUGAAAUCAUU: 6.24 ratio
AAUGGAAACAUGAAUAAUGUUGUAACUCGAAGAUUUAGCAAAGCUGACACAAUAGAUACAAUUGAAAAGGAAAUAAGAAAAAUCUUCAGUAUUCCAGAUGAAAAGGAGACCAGAUUGUGG: 0.605 ratio

Set 3
Target: RNA binding protein fox-1 homolog 2, RRM domain, GST-SBP tag (RBFOX2, Homo sapiens, UniProt O43251-10, residues 100-194)
Technique: RNA Bind-n-Seq
Molecule type: RNA
Medium: in vitro
Concentration: 365 nM
Notes: natural RNA segment, single round, ends assumed
Reference: no-protein control
Reading: higher = stronger binding
Quantity: RBNS enrichment (R)
All sequences stand within: GGGAGUUCUACAGUCCGACGAUC … UGGAAUUCUCGGGUGCCAA
Construct (chain): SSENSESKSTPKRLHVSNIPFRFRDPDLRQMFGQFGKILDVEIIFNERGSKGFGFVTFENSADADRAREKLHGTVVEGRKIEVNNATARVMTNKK
AAGUGCAUUUAAUAUUGGUAAUUUAAUGAAAAGCAUUCCUUGCCCAAUGGAUGUAAACAUUUUUGAAAGAAUAAAGCAGAAUUAUAUAAUAUGAAAUGCUAUGUAAAGUU: 0.665
AGCGAGGCUGGGCUGGCCAGCCACCACUGACUAUACCAACUGGGCCUCUGAUGUUCUUCCAGUGAGGCAUCUCUCUGGGAUGCAGAACUUCCCUCCAUCCACCCCUCUGG: 0.251
ACUUACCACAAUUUGUAACCCUGAAUCUCUCCUGUGCUCUGGUGUUCAGAAAGCUGAGACAGCUGGGCCCAGUUGAUGUUGUACGUGAGAAAGAGGCAGUCUGUUGGAGA: 0.301
AGUAAAUCCUUUGUAUUCCAGACUUUAGGGCAGAGCCCUGAGGGAGUAUUAUUUUACAUAACCCGUCCUAGAGUAACAUUUUAGGCAACAUUCUUCAUUGCAAGUAAAAG: 0.363
UCAGCUUAGGUCACUUGAACAUGUGUAAGUGGUAUAAGUAGGAGCUAAAUGCCAGGAGGAAAAAGGUUCUCGAAGAACAGCAGAGUUUUCCUGUAAAACCAGUCUCAUUU: 0.69
CUGAAAACCUAUUUCUUCUAAAUUACAUGAUUUGGAUUGGUUUUAGGGUUUUAGGGUUGUAGGGUUUCUUUUGGAGAGGUAGGGGGCUAAUUGCUAUGUUCUCAUGGAUA: 0.586
GCUGAUGAUGCGCAACCCUGCUGACUGUUUCAGUUAAUAUGCUGCACACCACACACUUGUUUAGUGAACCAAAUCUAGAAAGUACCAAGGCAGAGGUAUGCUCCUGCUGU: 0.268
CUGGGUGUCAGUGGGAAGGAGACAGCAGAGCUCAGGCUUUGCCCUUUGACAGAAACCUAAAGACACAUCCACAUCCAUGCAUAGGGCUGUUGCUUGUUGUGUUGUAGGCA: 2.52
CUUGGGAGUUGGCAAGAGGGAGGGAAGGAAGGAGAGCAAAAUCUUCGGAAGGUGUUUCUUGUACCUGAGGGAUCCUGCCCUGAAUCUCCAUAGUCUCCACUGUGAACUGA: 0.501
UUGAAAAGAGAUUUGAAGAAACUGACAACUUCAAAAACAAAUGAGAAGCCCAAGGAACUGUGAGCAAUUAAAAGCAAACCGCGACACCCUUUGUCUCCACCACACAUAGU: 0.334
CAGAUCCACACAGUGUAAAAUACUAUACAACCAAACAUCCGCCUUUACAGGUCGUUAUUCUUCUAAGCAGUAGGUAACUUUUCCUGGGUUUCAUUCUUUCUAGUGUACUA: 0.354
UGCCUUGGCUUUUCUCCCCUUCUCAUUCUCCUCUCCCCUUUCCUCACUGAAGGCUGUGAGUUGCUUUCAAUGUGACAACACUAUGAUGUCAUUUGGAAGGAUUUGCCAGG: 0.445

Set 4
Target: CCNA2, cyclin fold, Cln2 fusion (human)
Technique: yeast growth competition, sequencing
Medium: yeast
Notes: strong parent motif
Reference: not given
Reading: higher = stronger binding
Quantity: normalised enrichment score
Starting sequence: RBL2 docking peptide (human); STTRRRLFVENDS; partner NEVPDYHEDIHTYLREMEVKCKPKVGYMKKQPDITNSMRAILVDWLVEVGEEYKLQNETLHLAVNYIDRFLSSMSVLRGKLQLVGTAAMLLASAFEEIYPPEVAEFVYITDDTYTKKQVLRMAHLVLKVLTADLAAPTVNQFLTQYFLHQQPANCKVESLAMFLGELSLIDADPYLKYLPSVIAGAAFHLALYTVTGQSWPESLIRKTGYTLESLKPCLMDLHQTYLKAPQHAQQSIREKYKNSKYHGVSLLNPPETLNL
STTRRGLFVENDS [R6G]: 1.83
STTRRRLFVEIDS [N11I]: 5.03
STTRRRLRVENDS [F8R]: 0.901
STTRRRLFDENDS [V9D]: 5.58
STTRRRLFVENDK [S13K]: 5.62
STRRRRLFVENDS [T3R]: 3.36
STTRGRLFVENDS [R5G]: 0.416
STTRKRLFVENDS [R5K]: 4.72
STTRRRLDVENDS [F8D]: 1.72
SPTRRRLFVENDS [T2P]: 3.82
STTRRRLFVNNDS [E10N]: 5.08
STYRRRLFVENDS [T3Y]: 5.71
STTRRRLVVENDS [F8V]: 0.259
STTRRRLFVENRS [D12R]: 5.74
SETRRRLFVENDS [T2E]: 4.9
STQRRRLFVENDS [T3Q]: 1.05
SSTRRRLFVENDS [T2S]: 5.4

Set 5
Target: Phosphate system positive regulatory protein PHO4, full length, GST-tagged (PHO4, Saccharomyces cerevisiae, UniProt P07270, residues 1-312)
Technique: competition protein-binding microarray
Molecule type: double-stranded DNA, one strand shown
Medium: in vitro
Concentration: 2 µM
Notes: whole 60-bp probe, lowest competitor level
Together with: Cbf1 competitor, 0.05 µM
Reading: higher = stronger binding
Quantity: fluorescence intensity
All sequences stand within: … GTCTTGATTCGCTTGACGCTGCTG
Residues (chain): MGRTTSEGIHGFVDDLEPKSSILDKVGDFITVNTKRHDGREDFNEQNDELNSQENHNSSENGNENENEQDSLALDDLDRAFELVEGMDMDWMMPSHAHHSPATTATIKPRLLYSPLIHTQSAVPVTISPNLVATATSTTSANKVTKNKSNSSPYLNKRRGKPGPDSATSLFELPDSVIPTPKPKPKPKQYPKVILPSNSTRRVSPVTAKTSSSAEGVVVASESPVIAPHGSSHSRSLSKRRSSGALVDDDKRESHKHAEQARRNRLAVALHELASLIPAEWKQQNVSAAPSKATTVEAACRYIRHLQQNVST
TGTGGAGTTCAGCTTGCTACGAATACGCAGTTTTAG: 2810 a.u.
AAAGCGGTAATTTGCTCAGTGGGTGCAGATATCTAT: 3920 a.u.
TCCGCATGGAAACGAAACGTGGGTATGACTTGGAAG: 14100 a.u.
GTCTTGTCTCATTTTCACGTGATTTTCCCCACTTCA: 8780 a.u.
GAGGTCGCTGCTCAACACGTACATGCAGAAGTAGTG: 7180 a.u.
GTTGAAGTTACCCGTCACGTCAAAGTTTTCACCGGA: 3820 a.u.
ACATCAAGGCACAATCACCTGATGAGTCTGCCTTAG: 4640 a.u.
CGGGGTTAAGTTTTTCACGTGTCGTGCGATCAGCAG: 13100 a.u.
TTATTTATAAAAGGACACGGGAGGGGGAATCCCGTC: 5200 a.u.
GAAAGGGTTTAGTACCACATGCTATGATGCCCACTG: 10100 a.u.
CGTCCTAGTGATTGTCACCCAACTTCCATGAGGAAG: 4100 a.u.
GAAGAGGTGCCTTGTCACCTGACGCCTTATTTTGTG: 3550 a.u.
TGATTATACTTTACCCACGCACATCAAACGCATACC: 9540 a.u.
GAAGTCGGTTCATTGCATGTGCTGTTACACTTCTTA: 8440 a.u.
ATGGCCTTTTGGCCTCACATGACAAATACAATCTCG: 6320 a.u.
AAATTACTAAGTTGCCAGGTGGGTGACGCCGTATGA: 5770 a.u.
GCCAGATAGACCACTGTCGTGCTTTGTTAAGTACAG: 6870 a.u.
CTTTCCCGATCTTTTCACGTGCGGTTAGCACATTTG: 14600 a.u.
CTTCTGTAAATTTGGATAGTGGGTGGACGCGCCCCG: 4150 a.u.
GGCAATATCAGTACCCACGTAACCGTGTGTTTCAGC: 7760 a.u.

For quick reference, copied from above (set 5):
CTTCTGTAAATTTGGATAGTGGGTGGACGCGCCCCG: 4150 a.u.
GAAGTCGGTTCATTGCATGTGCTGTTACACTTCTTA: 8440 a.u.
GAAGAGGTGCCTTGTCACCTGACGCCTTATTTTGTG: 3550 a.u.
TTATTTATAAAAGGACACGGGAGGGGGAATCCCGTC: 5200 a.u.
TGATTATACTTTACCCACGCACATCAAACGCATACC: 9540 a.u.
AAAGCGGTAATTTGCTCAGTGGGTGCAGATATCTAT: 3920 a.u.
GTTGAAGTTACCCGTCACGTCAAAGTTTTCACCGGA: 3820 a.u.
TCCGCATGGAAACGAAACGTGGGTATGACTTGGAAG: 14100 a.u.
ATGGCCTTTTGGCCTCACATGACAAATACAATCTCG: 6320 a.u.
CTTTCCCGATCTTTTCACGTGCGGTTAGCACATTTG: 14600 a.u.
GCCAGATAGACCACTGTCGTGCTTTGTTAAGTACAG: 6870 a.u.
GAGGTCGCTGCTCAACACGTACATGCAGAAGTAGTG: 7180 a.u.
